{"data": "Published values from different studies", "note": "Every numbered part comes from another study and shows a few of its results, in no order."}
{"data": "Study 1", "target": "Replicase polyprotein 1ab, nsp13 helicase (rep, Severe acute respiratory syndrome coronavirus 2, UniProt P0DTD1)", "mode": "inhibitor", "concentration": "20 µM"}
{"Structure (SMILES)": "OCc1cncc(F)c1", "inhibition": "1.24%"}
{"Structure (SMILES)": "O=C(O)C(=O)Nc1cccc(-c2nnn[nH]2)c1", "inhibition": "2.55%"}
{"Structure (SMILES)": "COc1ccc(C2CNC(=O)C2)cc1OC1CCCC1 (stereo not shown)", "inhibition": "2.54%"}
{"Structure (SMILES)": "CC(C)(C)[C@]1(O)CCN2C[C@H]3c4ccccc4CCc4cccc(c43)[C@@H]2C1", "inhibition": "0.23%"}
{"Structure (SMILES)": "CC(=O)OC[C@H]1O[C@@](COC(C)=O)(O[C@H]2O[C@H](COC(C)=O)[C@@H](OC(C)=O)[C@H](OC(C)=O)[C@H]2OC(C)=O)[C@@H](OC(C)=O)[C@@H]1OC(C)=O", "inhibition": "0.96%"}
{"Structure (SMILES)": "O=C1Cc2c([nH]c3ccc(Br)cc23)-c2ncccc2N1", "inhibition": "14.8%"}
{"Structure (SMILES)": "CC(C)C(C(=O)Nc1nccs1)c1ccc(Cl)cc1 (stereo not shown)", "inhibition": "1.57%"}
{"Structure (SMILES)": "CN(C)c1ccc2c(c1)Sc1cc(N(C)C)ccc1N2", "inhibition": "71.6%"}
{"Structure (SMILES)": "CCc1cncnc1N1CCN(Cc2nc3ccc(C(F)(F)F)cc3[nH]2)CC1", "inhibition": "5.18%"}
{"Structure (SMILES)": "CN1C(=O)N(C)C2C1N(C)C(=O)N2C (stereo not shown)", "inhibition": "2.55%"}
{"Structure (SMILES)": "CC1CC(OC(=O)C(O)c2ccccc2)CC(C)(C)N1C (stereo not shown)", "inhibition": "3.75%"}
{"Structure (SMILES)": "CC(C)NC(=O)COc1cccc(-c2nc(Nc3ccc4[nH]ncc4c3)c3ccccc3n2)c1", "inhibition": "6.46%"}
{"Structure (SMILES)": "CCOC(=O)C1=C(C)NC(c2ccccc2)=C(C(=O)OCc2ccc([N+](=O)[O-])cc2)C1C#Cc1ccccc1 (stereo not shown)", "inhibition": "1.53%"}
{"Structure (SMILES)": "C[C@@H](c1ccc2nccn2c1)n1nnc2ncc(-c3cnn(C)c3)nc21", "inhibition": "8.07%"}
{"Structure (SMILES)": "O=c1cc(N2CCOCC2)oc2c(-c3cccc4c3sc3ccccc34)cccc12", "inhibition": "7.68%"}
{"Structure (SMILES)": "O=C(O)c1ccccc1-c1c2cc(I)c(=O)c(I)c-2oc2c(I)c(O)c(I)cc12", "inhibition": "18.7%"}
{"Structure (SMILES)": "Cc1ccccc1N=Nc1ccc(NC(=O)c2ccnn2C)c(C)c1", "inhibition": "2.17%"}
{"data": "Study 2", "target": "Interferon regulatory factor 5, full length, phosphomimetic (IRF5, Homo sapiens, UniProt Q13568-2, residues 1-514, S451D/S453D/S456D/S462D)", "method": "protein-binding microarray", "molecule type": "double-stranded DNA, one strand shown", "medium": "in vitro", "concentration": "940 nM top", "setting": "60-bp whole probe", "added": "salmon DNA 0.4 mg/ml", "baseline": "random background probes", "reading": "higher = stronger binding", "constant ends, left off below": "GCCTAGCAC … GTCTTGATTCGCTTGACGCTGCTG"}
{"Oligonucleotide": "GTAGATTTCAGTTTCGATTAGTGCTAG", "fitted relative affinity": "9.55 z-score"}
{"Oligonucleotide": "GACGTTTTCGGGACTGGAGACGTGCTA", "fitted relative affinity": "0.384 z-score"}
{"Oligonucleotide": "TCACATTGCTGCCCTCAGACTGTGCTA", "fitted relative affinity": "0.269 z-score"}
{"Oligonucleotide": "TCATTTATGTACTCTCTCACTGTGCTA", "fitted relative affinity": "1.2 z-score"}
{"Oligonucleotide": "TCAGGGCTCTTCTCTGAAACTGTGCTA", "fitted relative affinity": "-0.0896 z-score"}
{"Oligonucleotide": "GACGGTTTCGTGTTTCGGGACGTGCTA", "fitted relative affinity": "6.01 z-score"}
{"Oligonucleotide": "GACGATATCGTGACTGGAGACGTGCTA", "fitted relative affinity": "-0.642 z-score"}
{"Oligonucleotide": "TTCTATCTCTGTTTTTGCTTGTGCTAG", "fitted relative affinity": "2.2 z-score"}
{"data": "Study 3", "target": "Histone acetyltransferase KAT6A, winged helix 2, GST fusion (KAT6A, Homo sapiens, UniProt Q92794, residues 85-181)", "method": "protein binding microarray", "molecule type": "double-stranded DNA, one strand shown", "medium": "in vitro", "concentration": "not given", "setting": "8-mer, flanks averaged, mean of 2 arrays, mostly near background", "baseline": "not given", "reading": "higher = stronger binding", "Residues (chain)": "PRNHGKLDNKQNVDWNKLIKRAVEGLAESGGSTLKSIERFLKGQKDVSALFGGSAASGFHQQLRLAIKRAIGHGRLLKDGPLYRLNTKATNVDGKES"}
{"Oligonucleotide": "CTAGGGAA", "E-score": -0.0287}
{"Oligonucleotide": "ACTGCCCT", "E-score": 0.0176}
{"Oligonucleotide": "GTACAGAA", "E-score": -0.0571}
{"Oligonucleotide": "GAATAGTC", "E-score": -0.0681}
{"Oligonucleotide": "TACCCAAA", "E-score": -0.0696}
{"Oligonucleotide": "ACAAGCAT", "E-score": 0.0402}
{"Oligonucleotide": "ATAAATAA", "E-score": 0.138}
{"Oligonucleotide": "AGCCCTTC", "E-score": -0.00113}
{"data": "Other studies, line by line"}
{"Structure (SMILES)": "OC[C@@H](O)[C@@H](O)[C@H](O)[C@@H](O)CO", "cell line": "HEK-293T/ACE2", "conditions": "concentration not given, 16 (unit not given)", "how to read": "baseline: vehicle", "endpoint": "viability", "result": "102%"}
{"note": "A few entries again (study 2):"}
{"Oligonucleotide": "TTCTATCTCTGTTTTTGCTTGTGCTAG", "fitted relative affinity": "2.2 z-score"}
{"Oligonucleotide": "TCATTTATGTACTCTCTCACTGTGCTA", "fitted relative affinity": "1.2 z-score"}
{"Oligonucleotide": "GACGTTTTCGGGACTGGAGACGTGCTA", "fitted relative affinity": "0.384 z-score"}
{"Oligonucleotide": "GACGGTTTCGTGTTTCGGGACGTGCTA", "fitted relative affinity": "6.01 z-score"}
{"Oligonucleotide": "GTAGATTTCAGTTTCGATTAGTGCTAG", "fitted relative affinity": "9.55 z-score"}
